# Measured values from different studies.
# Compare with care: the assays were run in different laboratories. Numbers after ± are the reported error.
Structure (SMILES),test system,setting,tissue uptake [%ID/g]
N=C(N)NCCC[C@@H]1NC(=O)[C@H](CCCCNC(=O)CCOCCOCCOCCOCCNC(=O)CN2CCN(CC(=O)O)CCN(CC(=O)O)CCN(CC(=O)O)CC2)NC(=O)[C@@H](Cc2ccccc2)NC(=O)[C@H](CC(=O)O)NC(=O)CNC1=O [indium-111 labelled],"female athymic nude mice, blood","intravenous, 3 µCi, 72 h, U-87 MG glioma xenograft",0.02 ± 0.01
CSCC[C@H](NC(=O)[C@H](CC(C)C)NC(=O)[C@H](Cc1c[nH]cn1)NC(=O)CNC(=O)[C@@H](NC(=O)[C@H](C)NC(=O)[C@H](Cc1c[nH]c2ccccc12)NC(=O)[C@H](CCC(N)=O)NC(=O)CNC(=O)[C@H](CO)NC(=O)CNC(=O)CCCCCCCNC(=O)CCC(=O)Nc1ccc(CNC23CNCCNCC(N)(CNCCNC2)CNCCNC3)cc1)C(C)C)C(N)=O [copper-64 labelled],"female SCID mice, PC-3 xenograft, liver","intravenous, 0.6 MBq, 24 h",2.82 ± 0.274
CCCC[C@H](NC(=O)CCCCCCCNC(=O)c1ccc(NN)nc1)C(=O)N[C@H]1CC(=O)NCCCC[C@@H](C(N)=O)NC(=O)[C@H](Cc2c[nH]c3ccccc23)NC(=O)[C@H](CCCNC(=N)N)NC(=O)[C@@H](Cc2ccccc2)NC(=O)[C@H](Cc2c[nH]cn2)NC1=O [technetium-99m labelled],"C57 mouse, B16/F1 melanoma, kidneys","2 h, together with: L-lysine 12 mg co-injected",4.64 ± 0.48
N=C(N)NCCC[C@@H]1NC(=O)[C@H](CC(=O)NC23CNCCNCC(N)(CNCCNC2)CNCCNC3)NC(=O)[C@@H](Cc2ccccc2)NC(=O)[C@H](CC(=O)O)NC(=O)CNC1=O [copper-64 labelled],"Nu/Nu mouse, male, tumour-bearing, liver","intravenous, 10 µCi, 4 h",2.17 ± 0.64
N=C(N)NCCC[C@@H]1NC(=O)[C@H](CCCCNC(=O)CNC(=O)CNC(=O)CNC(=O)CC[C@H](NC(=O)c2ccc(NN=Cc3ccccc3S(=O)(=O)O)nc2)C(=O)NCC(=O)NCC(=O)NCC(=O)NCCCC[C@@H]2NC(=O)[C@@H](Cc3ccccc3)NC(=O)[C@H](CC(=O)O)NC(=O)CNC(=O)[C@H](CCCNC(=N)N)NC2=O)NC(=O)[C@@H](Cc2ccccc2)NC(=O)[C@H](CC(=O)O)NC(=O)CNC1=O [technetium-99m labelled],"athymic nu/nu mouse, female, MDA-MB-435 xenograft, muscle","intravenous, 120 min",1.6 ± 0.32
N=C(N)NCCC[C@@H]1NC(=O)[C@H](CCCCNC(=O)CC[C@H](NC(=O)CCOCCOCCOCCOCCNC(=O)CN2CCN(CC(=O)O)CCN(CC(=O)O)CCN(CC(=O)O)CC2)C(=O)NCCCC[C@@H]2NC(=O)[C@@H](Cc3ccccc3)NC(=O)[C@H](CC(=O)O)NC(=O)CNC(=O)[C@H](CCCNC(=N)N)NC2=O)NC(=O)[C@@H](Cc2ccccc2)NC(=O)[C@H](CC(=O)O)NC(=O)CNC1=O [indium-111 labelled],"female athymic nude mice, lungs","intravenous, 3 µCi, 24 h, U-87 MG glioma xenograft",0.78 ± 0.09
CCCC[C@H](NC(=O)COCCOCCNC(=O)c1ccc(NN)nc1)C(=O)N[C@H]1CC(=O)NCCCC[C@@H](C(N)=O)NC(=O)[C@H](Cc2c[nH]c3ccccc23)NC(=O)[C@H](CCCNC(=N)N)NC(=O)[C@@H](Cc2ccccc2)NC(=O)[C@H](Cc2c[nH]cn2)NC1=O [technetium-99m labelled],"C57 mouse, female, B16/F1 melanoma, tumor","intravenous, 0.037 MBq, 2 h",14.3 ± 2.82
N=C(N)NCCC[C@@H]1NC(=O)[C@H](CCCCNC(=O)CNC(=O)CNC(=O)CNC(=O)CC[C@H](NC(=O)CCOCCOCCOCCOCCNC(=O)CC[C@H](NC(=O)CN2CCN(CC(=O)O)CCN(CC(=O)O)CCN(CC(=O)O)CC2)C(=O)NCCOCCOCCOCCOCCC(=O)N[C@@H](CCC(=O)NCC(=O)NCC(=O)NCC(=O)NCCCC[C@@H]2NC(=O)[C@@H](Cc3ccccc3)NC(=O)[C@H](CC(=O)O)NC(=O)CNC(=O)[C@H](CCCNC(=N)N)NC2=O)C(=O)NCC(=O)NCC(=O)NCC(=O)NCCCC[C@@H]2NC(=O)[C@@H](Cc3ccccc3)NC(=O)[C@H](CC(=O)O)NC(=O)CNC(=O)[C@H](CCCNC(=N)N)NC2=O)C(=O)NCC(=O)NCC(=O)NCC(=O)NCCCC[C@@H]2NC(=O)[C@@H](Cc3ccccc3)NC(=O)[C@H](CC(=O)O)NC(=O)CNC(=O)[C@H](CCCNC(=N)N)NC2=O)NC(=O)[C@@H](Cc2ccccc2)NC(=O)[C@H](CC(=O)O)NC(=O)CNC1=O [indium-111 labelled],"female athymic nude mice, muscle","intravenous, 3 µCi, 72 h, U-87 MG glioma xenograft",0.27 ± 0.07
CSCC[C@H](NC(=O)[C@H](CC(C)C)NC(=O)[C@H](Cc1c[nH]cn1)NC(=O)CNC(=O)[C@@H](NC(=O)[C@H](C)NC(=O)[C@H](Cc1c[nH]c2ccccc12)NC(=O)[C@H](CCC(N)=O)NC(=O)CCCCCNC(=O)CNC(=O)CNC(=O)CNC(=O)CSC(C)=O)C(C)C)C(N)=O [technetium-99m labelled],"nude mouse, PC-3 xenograft, blood","30 min, together with: excess unlabelled conjugate",0.98 ± 0.29
CCCC[C@H](NC(=O)CNC(=O)CNC(=O)c1ccc(NN)nc1)C(=O)N[C@H]1CC(=O)NCCCC[C@@H](C(N)=O)NC(=O)[C@H](Cc2c[nH]c3ccccc23)NC(=O)[C@H](CCCNC(=N)N)NC(=O)[C@@H](Cc2ccccc2)NC(=O)[C@H](Cc2c[nH]cn2)NC1=O [technetium-99m labelled],"C57 mouse, B16/F1 melanoma-bearing, kidneys","intravenous, 24 h",1.28 ± 0.28

# Some of these lines once more:
Structure (SMILES),test system,setting,tissue uptake [%ID/g]
CCCC[C@H](NC(=O)COCCOCCNC(=O)c1ccc(NN)nc1)C(=O)N[C@H]1CC(=O)NCCCC[C@@H](C(N)=O)NC(=O)[C@H](Cc2c[nH]c3ccccc23)NC(=O)[C@H](CCCNC(=N)N)NC(=O)[C@@H](Cc2ccccc2)NC(=O)[C@H](Cc2c[nH]cn2)NC1=O [technetium-99m labelled],"C57 mouse, female, B16/F1 melanoma, tumor","intravenous, 0.037 MBq, 2 h",14.3 ± 2.82
